Measured values collected from several papers.
Parts stem from different laboratories: compare values within a part only.

Set 1 — technique: universal PBM; molecule type: double-stranded DNA, one strand shown; sample: in vitro; tested at: not given; direction: higher = stronger binding
Target: Sal-like protein 4, full length isoform B (SALL4, Homo sapiens, UniProt Q9UJQ4-2, residues 1-616)
Notes: 8-mer, flanks averaged, mean of replicates
For `ACAGTGTG`, the E-score was 0.069.
`AGGAACGG` has an E-score of -0.165.
For `GCCAAGTA`, the E-score was -0.184.
With `ACATTAAC` the E-score was 0.213.
The E-score of `ACTGTCTG` is reported as -0.0471.
With `GGCTTCGA` the E-score was -0.172.

Set 2 — technique: protein binding microarray; molecule type: double-stranded DNA, one strand shown; sample: in vitro; tested at: not given; baseline: not given; direction: higher = stronger binding
Target: Histone acetyltransferase KAT6A, winged helix 2, GST fusion (KAT6A, Homo sapiens, UniProt Q92794, residues 85-181)
Notes: 8-mer, flanks averaged, mean of 2 arrays, mostly near background
Construct (chain): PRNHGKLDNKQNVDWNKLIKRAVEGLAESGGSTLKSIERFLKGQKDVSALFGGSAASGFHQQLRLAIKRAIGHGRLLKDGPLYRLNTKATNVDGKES
The E-score of `CTATTCCC` is reported as 0.0899.
`CAAGTCTG` has an E-score of -0.159.
`AGTTACAA` has an E-score of 0.0259.
With `CCATGCCA` the E-score was -0.0258.
The E-score of `GCTGCCCC` is reported as 0.143.
With `GGATGGGA` the E-score was -0.0966.

Set 3 — technique: RNA Bind-n-Seq; molecule type: RNA; sample: in vitro; tested at: 365 nM; baseline: no-protein control; direction: higher = stronger binding
Target: RNA binding protein fox-1 homolog 2, RRM domain, GST-SBP tag (RBFOX2, Homo sapiens, UniProt O43251-10, residues 100-194)
Notes: natural RNA segment, single round, ends assumed
Construct (chain): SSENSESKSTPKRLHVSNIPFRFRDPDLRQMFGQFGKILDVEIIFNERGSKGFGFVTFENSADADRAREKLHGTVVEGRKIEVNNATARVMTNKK
`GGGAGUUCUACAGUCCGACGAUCAAAAAGGUUGGUGGCUUUUGCUUGGGAUCAGUGCUCUGCUAACGCCCUUGCUGGUCUCUCCACACAUUCCUGUCAUUGAGACUUGAAUUGUAGGUGUGAUGUUAUGCACAUGGAAUUCUCGGGUGCCAA` — result for “RBNS enrichment (R)”: 0.534.
`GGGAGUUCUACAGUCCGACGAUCACAGACCUUGUGAUUUGGUCUGAGCUAGUUGCUGAGUUGACUGGAGCCUUAUUUGAAUGGAUCUUUGAGUUGAGAUCUUCACACUGUCAGUGAGCCCUUGGCUCAGCCCUUGGAAUUCUCGGGUGCCAA` — result for “RBNS enrichment (R)”: 0.832.
`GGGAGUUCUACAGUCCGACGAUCAUGGUGAAAACUGUGGGAAGGGUUUUUUUUUUUAAUUUCAACAAAAGAAAAAGUGACCAUCUUACCUGUCAUUCAGAAUGCAAGCUAACAUCAUCCCUGUAAGCAGAGAGUGGAAUUCUCGGGUGCCAA` — result for “RBNS enrichment (R)”: 0.324.
`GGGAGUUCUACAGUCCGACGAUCAGAGCGCGGUACAGCUGGGCCCAGCCCUGGAGAACCUCUCUUGUCCCAAGGAGCUUCGUGAACUGGCAGAGGCUGAAGCGAUCCAGUUGGGCCUCUCUUGACUAUAGCAGUGGAAUUCUCGGGUGCCAA`: “RBNS enrichment (R)” 0.278.
`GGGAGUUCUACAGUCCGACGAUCGGCAGCAGAGCCAUCGCAUCAUGUUUCCCAGGGCAACUUGAGGUCUGACUUUUGGCUCCCUCGCCCUAAGAGGCUCUUCCUCUCUUUUGCUCAUCCACCUUCACACCACUUGGAAUUCUCGGGUGCCAA`: “RBNS enrichment (R)” 1.25.
`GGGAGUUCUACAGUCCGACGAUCCUGUGGAGUUUUAACAUUUUGUCCUCUUUUCAGUGAAACAGAGUAAAAAUAUUCAUCUACCAUUACUGUUAUUUGCUGAUUUUGUUUUAUUUUUUGAUGGUAAUAUUCUAUGGAAUUCUCGGGUGCCAA` — result for “RBNS enrichment (R)”: 1.15.

Single results of other studies
`PhoQ, residues 284 288 289 292 302 303 SIHMAM` gave a fold induction of 7.68 (PhoP, residues 12 14 15 18 19 VQALL (Escherichia coli, UniProt P23836); Sort-seq, item: YFP reporter; E. coli; PhoQ-PhoP variant library, added: 10 µM Mg2+; baseline: high Mg2+ state, higher = stronger signaling).

Some of these lines once more (set 3):
`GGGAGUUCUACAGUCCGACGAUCAAAAAGGUUGGUGGCUUUUGCUUGGGAUCAGUGCUCUGCUAACGCCCUUGCUGGUCUCUCCACACAUUCCUGUCAUUGAGACUUGAAUUGUAGGUGUGAUGUUAUGCACAUGGAAUUCUCGGGUGCCAA` — result for “RBNS enrichment (R)”: 0.534.
`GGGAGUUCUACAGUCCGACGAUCACAGACCUUGUGAUUUGGUCUGAGCUAGUUGCUGAGUUGACUGGAGCCUUAUUUGAAUGGAUCUUUGAGUUGAGAUCUUCACACUGUCAGUGAGCCCUUGGCUCAGCCCUUGGAAUUCUCGGGUGCCAA` — result for “RBNS enrichment (R)”: 0.832.
`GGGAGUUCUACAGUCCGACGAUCAUGGUGAAAACUGUGGGAAGGGUUUUUUUUUUUAAUUUCAACAAAAGAAAAAGUGACCAUCUUACCUGUCAUUCAGAAUGCAAGCUAACAUCAUCCCUGUAAGCAGAGAGUGGAAUUCUCGGGUGCCAA` — result for “RBNS enrichment (R)”: 0.324.
